Experimental data of several laboratories.
Target: Serine/threonine-protein kinase DCLK1 (DCLK1, Homo sapiens, UniProt O15075)

Compound | test | setting | how to read | endpoint | value
Cc1ccc(-c2c(/C=C(\C#N)C(=O)NC(C)C)n(CCCO)c3ncnc(N)c23)cc1 | cell-free assay, competition with immobilised ligand | 1 µM |  | remaining binding | 100%
COc1cc(Nc2nccc(-c3cnn4nc(OC)ccc34)n2)cc(C(F)(F)F)c1 | binding, competition with immobilised ligand | 1 µM |  | remaining binding | 89%
Cc1cnc2nc1Nc1cccc(c1)COC/C=C/COCc1cc(ccc1OCCN1CCOCC1)N2 |  | concentration not given, gene name DCAMKL1 |  | percent of control | 95%
C=CC(=O)N1CCCC(n2c(=O)c3ncccc3n(Cc3ccc(Oc4ccccc4)cc3)c2=O)C1 (stereo not shown) | cell-free assay, competition with immobilised ligand | 1 µM |  | remaining binding | 71%
NC(=O)[C@@H](O)C[C@H]1CCc2sc3ncnc(O[C@H]4CC[C@H](N5CCOCC5)CC4)c3c21 | enzyme activity, inhibitor | 10 µM |  | inhibition | 14%
CN1CCN(Cc2ccc(NC(=O)c3cccc(C#Cc4cnc(N)c5ncccc45)c3)cc2C(F)(F)F)CC1 | cell-free assay, competition with immobilised ligand | 0.5 µM |  | remaining binding | 61%
CC(C)=CC1OC(C)(C)C2C=C3C(=O)C(Cl)=CC(O)C3C3C(O)C4OC4C(=O)C132 (stereo not shown) | cell-free assay, competition with immobilised ligand | 10 µM |  | remaining binding | 58%
COc1ccc(NC(=O)Nc2ccc3c(c2)C(=O)N(C(C)CO)CC(C)C(CN(C)Cc2ccc4c(c2)OCO4)O3)cc1 (stereo not shown) | binding, competition with immobilised ligand | 10 µM |  | remaining binding | 37%
C=CC(=O)N1Cc2nc(-c3cc(-c4cc(Cl)cnc4Cl)c(F)cc3F)n(-c3ccncn3)c2C1 | cell-free assay, inhibitor | 1 µM |  | inhibition | -1.6%
C=CC(=O)N1CCc2ccc(-n3c(=O)ccc4cnc5ccc(-c6cnn(C)c6)cc5c43)cc21 | KINOMEscan | 1 µM | baseline: DMSO control | remaining binding | 72%
CCn1cc(C(=O)O)c(=O)c2c(N)c(F)c(NC3CCCCC3)cc21 | kinase activity | 0.1 µM, together with: ATP at Km |  | inhibition | 4.3%
COc1c(Cl)cccc1Nc1c(-c2ccncc2C#C[C@@]2(C)CCCN2C(=O)/C=C/CN(C)C)[nH]c2c1C(=O)NCC2 | binding, competition with immobilised ligand | 3 µM |  | remaining binding | 91%
CNS(=O)(=O)Nc1nccc(Cc2c(C)c3ccc(Oc4ncccc4F)cc3oc2=O)c1F | binding, competition with immobilised ligand | 10 µM |  | remaining binding | 78%

For quick reference, copied from above:
Compound | test | setting | how to read | endpoint | value
CN1CCN(Cc2ccc(NC(=O)c3cccc(C#Cc4cnc(N)c5ncccc45)c3)cc2C(F)(F)F)CC1 | cell-free assay, competition with immobilised ligand | 0.5 µM |  | remaining binding | 61%
COc1cc(Nc2nccc(-c3cnn4nc(OC)ccc34)n2)cc(C(F)(F)F)c1 | binding, competition with immobilised ligand | 1 µM |  | remaining binding | 89%
